Experimental data from different studies.
Compare with care: the assays were run in different laboratories. Values joined by “and” are separate records of one study, mostly repeats; a detail may differ. Numbers after ± are the reported error.

The MIC90 of `COc1ccc(C2=[N+]([O-])c3ccccc3N3CCCN=C23)cc1` is reported as 8 µg/mL (Clostridioides difficile; microbial growth).
With `CC(C)[C@H]1NC(=O)CNC(=O)[C@H](CO)NC(=O)[C@@H](Cc2c(-c3ccc(-c4ccc5ccccc5c4)cc3)[nH]c3ccccc23)NC(=O)[C@@H](CO)NC(=O)[C@@H](C(C)C)NC(=O)[C@H](Cc2ccc(O)cc2)NC1=O` the MIC90 was 100 µM (Mycobacterium marinum).
`CCc1nn(C)c2nc(-c3ccc(C(=O)O)cc3)nc(NCc3ccccc3)c12` gave a parasite number of 136% and 119% and 86.8% and 103% (Cryptosporidium parvum; HCT-8; EC50, 24 h; baseline: DMSO control).
For `CC(C)[C@H]1NC(=O)[C@H](Cc2ccccc2)NC(=O)[C@@H](C(C)C)NC(=O)[C@@H](C)NC(=O)[C@H](C)NC(=O)[C@@H](Cc2c(-c3ccc(-c4ccc5ccccc5c4)cc3)[nH]c3ccccc23)NC(=O)[C@@H](CO)NC1=O`, the MIC90 was 41.5 µM (Mycobacterium marinum).
With `CN(CCO)CCO.O=C(O)C(Cl)Cl` the inhibition was 0% (Solanum nigrum; herbicidal activity; 15 mg/mL, 21 days, pre-emergence greenhouse).
For `O=S(=O)(c1ccc(-c2ccc3ncnc(Nc4ccc(OCc5cccc(F)c5)c(Cl)c4)c3c2)cc1)N1CCCCC1`, the inhibition was 1% (Trypanosoma cruzi; intracellular amastigote growth; NIH 3T3, Tulahuen, β-galactosidase-expressing; 10 µM, 96 h).
Under “cells with visible microtubules”, `CCCCC(CC)COC(=O)CC(C(=O)OCC(CC)CCCC)S(=O)(=O)O.CCCSc1ccc2[nH]c(NC(=O)OC)nc2c1` (stereo not drawn) is recorded as 0.03 ± 0.07% (Cryptococcus neoformans; microscopy; GFP-β-tubulin expressing; 1.25 µM, 6 h).
For `COc1ccc(CCNC2CCCc3c2[nH]c2ccc(C)cc32)cc1` (stereo not drawn), “MIC fold change” read 4 (Streptococcus pneumoniae; concentration not given, 10% fetal bovine serum; baseline: without serum).
For `CC1(C)C(NC(=O)C(=NOC2(C(=O)O)CC2)c2csc(N)n2)C(=O)N1OS(=O)(=O)O` (stereo not drawn), the survival rate was 20% (Klebsiella pneumoniae; ATCC BAA-2146, NDM-1, ICR mice, systemic lethal infection; intravenous, 16 mg/kg, 7 days).
`COc1ccc(Cn2c3cc(=O)n(Cc4cccc(Cl)n4)c(C)c3c(=O)n2-c2ccccn2)cc1` — result for “normalized viral replication”: 0 (human respiratory syncytial virus; recombinant reporter virus; concentration not given, scale 0 to 100, together with: cytidine 11.1 µM).
For `Cc1cc(C(=O)Nc2nc3cccc(C)c3n2[C@H]2CCCCN(C(=O)/C=C/CN(C)C)C2)ccn1`, the survival was 80.8% and 80.1% and 86.3% and 80.2% and 101% and 77.5% (Trypanosoma brucei brucei; 2T1 wild type; 0.01029 µM).
With `CN(C)c1nc(NCc2cccc3ccccc23)c(/N=N/c2ccc(Cl)cc2)c(N(C)C)n1` the mortality was 73.3 ± 5.8% (Ostrinia furnacalis; leaf dipping; 200 mg/L, 96 h).

A few entries again:
For `CC1(C)C(NC(=O)C(=NOC2(C(=O)O)CC2)c2csc(N)n2)C(=O)N1OS(=O)(=O)O` (stereo not drawn), the survival rate was 20% (Klebsiella pneumoniae; ATCC BAA-2146, NDM-1, ICR mice, systemic lethal infection; intravenous, 16 mg/kg, 7 days).
For `O=S(=O)(c1ccc(-c2ccc3ncnc(Nc4ccc(OCc5cccc(F)c5)c(Cl)c4)c3c2)cc1)N1CCCCC1`, the inhibition was 1% (Trypanosoma cruzi; intracellular amastigote growth; NIH 3T3, Tulahuen, β-galactosidase-expressing; 10 µM, 96 h).
